Measurements collected from several papers.
Lines come from different studies, so protocols differ.
ABL1 T315I phosphorylated: Tyrosine-protein kinase ABL1, phosphorylated (ABL1, Homo sapiens, UniProt P00519, T315I)

SMILES	target	assay	conditions	scale	remaining binding [%]
Cc1ccc(C(=O)Nc2cccc(C(F)(F)F)c2)cc1Nc1cncc(C(N)=O)c1	Tyrosine-protein kinase ABL1 (ABL1, Homo sapiens, UniProt P00519, F317I)	binding, competition with immobilised ligand	1 µM	–	13
C=CC(=O)N1CCc2ccc(-n3c(=O)ccc4cnc5ccc(-c6cnn(C)c6)cc5c43)cc21	Tyrosine-protein kinase ABL1, non-phosphorylated (ABL1, Homo sapiens, UniProt P00519, F317I)	KINOMEscan, measured: (F317I)-nonphosphorylated	1 µM	baseline: control	100
CC(C)=CC1OC(C)(C)C2C=C3C(=O)C(Cl)=CC(O)C3C3C(O)C4OC4C(=O)C132 (centres unmarked)	Tyrosine-protein kinase ABL1, phosphorylated (ABL1, Homo sapiens, UniProt P00519, Y253F)	cell-free assay, competition with immobilised ligand	10 µM	–	80
CN1CCN(Cc2ccc(NC(=O)c3cccc(C#Cc4cnc(N)c5ncccc45)c3)cc2C(F)(F)F)CC1	Tyrosine-protein kinase ABL1, non-phosphorylated (ABL1, Homo sapiens, UniProt P00519)	cell-free assay, competition with immobilised ligand	50 nM	–	0.8
CC(=O)N1c2ccc(-c3ccc(CNC(=O)c4cn5cc(-c6cnc(N)nc6)nc(N6CCOCC6)c5n4)cc3)cc2CC[C@@H]1C	ABL1 T315I phosphorylated	binding, competition with immobilised ligand	10 µM	–	99
Cc1ccc(-c2c(/C=C(\C#N)C(=O)NC(C)C)n(CCCO)c3ncnc(N)c23)cc1	Tyrosine-protein kinase ABL1, phosphorylated (ABL1, Homo sapiens, UniProt P00519, Q252H)	cell-free assay, competition with immobilised ligand	1 µM	–	91
COc1c(Cl)cccc1Nc1c(-c2ccncc2C#C[C@@]2(C)CCCN2C(=O)/C=C/CN(C)C)[nH]c2c1C(=O)NCC2	Tyrosine-protein kinase ABL1, phosphorylated (ABL1, Homo sapiens, UniProt P00519)	binding, competition with immobilised ligand	3 µM	–	77
CNS(=O)(=O)Nc1nccc(Cc2c(C)c3ccc(Oc4ncccc4F)cc3oc2=O)c1F	ABL1 T315I phosphorylated	binding, competition with immobilised ligand	10 µM	–	99
CCN1CCN(Cc2ccc(NC(=O)c3ccc(C)c(NC(=O)c4cncc(-c5cccs5)c4)c3)cc2C(F)(F)F)CC1	Tyrosine-protein kinase ABL1 (ABL1, Homo sapiens, UniProt P00519, T315I)	binding, competition with immobilised ligand	1 µM	–	9.4
COc1ccc(NC(=O)Nc2ccc3c(c2)C(=O)N(C(C)CO)CC(C)C(CN(C)Cc2ccc4c(c2)OCO4)O3)cc1 (centres unmarked)	ABL1 T315I phosphorylated	binding, competition with immobilised ligand	10 µM	–	44
Nc1ncc2c(n1)-c1c([nH]c3ccc(C4=CCOCC4)cc13)CCC2	Tyrosine-protein kinase ABL1, phosphorylated (ABL1, Homo sapiens, UniProt P00519, M351T)	binding, competition with immobilised ligand	1 µM	–	100

Repeated from above:
SMILES	target	assay	conditions	scale	remaining binding [%]
CC(C)=CC1OC(C)(C)C2C=C3C(=O)C(Cl)=CC(O)C3C3C(O)C4OC4C(=O)C132 (centres unmarked)	Tyrosine-protein kinase ABL1, phosphorylated (ABL1, Homo sapiens, UniProt P00519, Y253F)	cell-free assay, competition with immobilised ligand	10 µM	–	80
Cc1ccc(-c2c(/C=C(\C#N)C(=O)NC(C)C)n(CCCO)c3ncnc(N)c23)cc1	Tyrosine-protein kinase ABL1, phosphorylated (ABL1, Homo sapiens, UniProt P00519, Q252H)	cell-free assay, competition with immobilised ligand	1 µM	–	91
